Assay results of several laboratories.
Parts stem from different laboratories: compare values within a part only. “And” joins repeats or separate records; there may be more than shown.
UniProt O14578, sequence (whole entry, looked up): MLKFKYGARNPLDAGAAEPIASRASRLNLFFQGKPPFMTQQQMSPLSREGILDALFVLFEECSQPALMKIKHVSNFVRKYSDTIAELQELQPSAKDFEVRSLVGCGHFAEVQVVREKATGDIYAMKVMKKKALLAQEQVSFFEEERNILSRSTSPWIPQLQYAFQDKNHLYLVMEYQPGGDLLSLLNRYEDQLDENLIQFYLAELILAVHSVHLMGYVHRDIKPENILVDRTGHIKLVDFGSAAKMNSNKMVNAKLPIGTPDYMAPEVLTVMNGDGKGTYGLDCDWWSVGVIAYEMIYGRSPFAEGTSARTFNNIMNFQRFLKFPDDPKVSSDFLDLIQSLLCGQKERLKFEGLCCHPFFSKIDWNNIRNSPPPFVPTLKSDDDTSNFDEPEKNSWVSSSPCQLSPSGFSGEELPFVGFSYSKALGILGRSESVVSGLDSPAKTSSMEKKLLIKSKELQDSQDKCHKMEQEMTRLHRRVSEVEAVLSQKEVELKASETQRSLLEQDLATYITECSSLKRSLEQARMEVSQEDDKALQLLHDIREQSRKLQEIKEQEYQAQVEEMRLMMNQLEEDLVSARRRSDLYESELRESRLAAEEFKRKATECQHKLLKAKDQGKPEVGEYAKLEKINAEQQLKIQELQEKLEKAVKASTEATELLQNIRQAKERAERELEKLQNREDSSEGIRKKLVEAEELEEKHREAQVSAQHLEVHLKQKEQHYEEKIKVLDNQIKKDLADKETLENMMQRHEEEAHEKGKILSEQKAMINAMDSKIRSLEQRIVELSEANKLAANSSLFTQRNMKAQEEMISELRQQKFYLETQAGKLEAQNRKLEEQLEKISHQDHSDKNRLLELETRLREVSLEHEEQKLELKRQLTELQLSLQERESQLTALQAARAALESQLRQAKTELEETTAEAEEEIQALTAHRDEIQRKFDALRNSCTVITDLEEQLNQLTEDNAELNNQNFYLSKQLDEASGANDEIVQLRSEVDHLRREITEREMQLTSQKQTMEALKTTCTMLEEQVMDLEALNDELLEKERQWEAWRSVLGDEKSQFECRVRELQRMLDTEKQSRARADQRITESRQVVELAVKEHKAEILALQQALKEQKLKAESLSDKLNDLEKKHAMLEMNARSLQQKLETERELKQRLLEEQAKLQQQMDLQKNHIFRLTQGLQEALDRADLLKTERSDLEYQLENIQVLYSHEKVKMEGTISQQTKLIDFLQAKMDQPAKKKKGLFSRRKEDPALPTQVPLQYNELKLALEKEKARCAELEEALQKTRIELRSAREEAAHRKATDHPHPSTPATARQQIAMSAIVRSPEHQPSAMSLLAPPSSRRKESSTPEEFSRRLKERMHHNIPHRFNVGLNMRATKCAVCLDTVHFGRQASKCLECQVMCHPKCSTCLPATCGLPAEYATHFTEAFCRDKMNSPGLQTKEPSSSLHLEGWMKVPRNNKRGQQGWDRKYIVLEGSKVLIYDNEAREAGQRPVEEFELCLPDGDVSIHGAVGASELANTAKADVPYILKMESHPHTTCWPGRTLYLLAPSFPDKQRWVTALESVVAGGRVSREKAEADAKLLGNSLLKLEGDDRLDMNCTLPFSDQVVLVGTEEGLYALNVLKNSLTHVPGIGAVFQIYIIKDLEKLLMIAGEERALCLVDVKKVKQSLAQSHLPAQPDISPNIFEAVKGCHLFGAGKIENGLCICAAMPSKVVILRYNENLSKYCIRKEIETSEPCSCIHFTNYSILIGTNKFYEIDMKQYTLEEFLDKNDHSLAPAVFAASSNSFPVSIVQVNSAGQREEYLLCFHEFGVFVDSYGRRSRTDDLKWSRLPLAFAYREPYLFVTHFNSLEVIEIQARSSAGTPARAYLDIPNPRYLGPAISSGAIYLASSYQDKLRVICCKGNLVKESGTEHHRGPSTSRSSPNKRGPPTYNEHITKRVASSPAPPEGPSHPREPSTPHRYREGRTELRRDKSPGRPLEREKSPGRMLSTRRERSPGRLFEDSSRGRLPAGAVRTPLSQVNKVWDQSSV
UniProt Q8IWQ3, sequence (whole entry, looked up): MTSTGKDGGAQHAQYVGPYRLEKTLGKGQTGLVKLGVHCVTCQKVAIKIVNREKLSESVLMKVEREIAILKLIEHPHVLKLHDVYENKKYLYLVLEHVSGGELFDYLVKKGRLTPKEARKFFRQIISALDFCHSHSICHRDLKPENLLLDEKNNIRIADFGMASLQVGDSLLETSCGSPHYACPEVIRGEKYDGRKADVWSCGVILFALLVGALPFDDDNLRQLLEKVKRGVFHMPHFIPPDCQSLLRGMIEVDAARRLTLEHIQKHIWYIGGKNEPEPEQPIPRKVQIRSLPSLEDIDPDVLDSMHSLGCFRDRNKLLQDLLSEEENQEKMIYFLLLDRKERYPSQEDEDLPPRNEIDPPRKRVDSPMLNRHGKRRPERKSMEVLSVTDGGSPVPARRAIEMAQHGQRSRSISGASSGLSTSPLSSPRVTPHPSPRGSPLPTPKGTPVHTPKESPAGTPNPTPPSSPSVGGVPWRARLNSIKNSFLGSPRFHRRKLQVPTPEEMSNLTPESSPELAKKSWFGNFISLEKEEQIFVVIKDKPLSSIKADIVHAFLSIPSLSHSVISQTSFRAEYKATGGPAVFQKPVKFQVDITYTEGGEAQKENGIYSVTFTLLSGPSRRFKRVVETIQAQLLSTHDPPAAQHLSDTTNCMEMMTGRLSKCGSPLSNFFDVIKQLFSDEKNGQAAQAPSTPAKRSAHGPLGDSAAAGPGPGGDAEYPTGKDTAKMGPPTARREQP
UniProt O14920, sequence (whole entry, looked up): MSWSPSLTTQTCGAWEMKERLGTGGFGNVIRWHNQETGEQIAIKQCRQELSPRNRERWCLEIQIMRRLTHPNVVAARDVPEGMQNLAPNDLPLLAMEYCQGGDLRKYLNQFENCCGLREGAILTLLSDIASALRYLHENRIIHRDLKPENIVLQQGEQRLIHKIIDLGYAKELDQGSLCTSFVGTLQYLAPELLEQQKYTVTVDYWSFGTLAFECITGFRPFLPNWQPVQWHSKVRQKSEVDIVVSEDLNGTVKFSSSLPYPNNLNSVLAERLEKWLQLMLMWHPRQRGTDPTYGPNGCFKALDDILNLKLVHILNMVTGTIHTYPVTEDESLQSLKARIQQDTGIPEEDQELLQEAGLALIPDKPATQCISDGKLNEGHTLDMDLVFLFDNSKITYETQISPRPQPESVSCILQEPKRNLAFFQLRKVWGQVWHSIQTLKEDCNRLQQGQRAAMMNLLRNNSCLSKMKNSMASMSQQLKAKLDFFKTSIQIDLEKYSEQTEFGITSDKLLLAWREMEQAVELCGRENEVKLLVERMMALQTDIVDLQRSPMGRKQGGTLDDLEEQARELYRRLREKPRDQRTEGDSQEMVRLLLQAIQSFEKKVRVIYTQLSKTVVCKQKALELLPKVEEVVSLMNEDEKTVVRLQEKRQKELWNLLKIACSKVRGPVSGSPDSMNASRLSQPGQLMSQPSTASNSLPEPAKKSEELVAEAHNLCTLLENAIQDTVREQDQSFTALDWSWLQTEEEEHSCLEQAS
UniProt P45985, sequence (whole entry, looked up): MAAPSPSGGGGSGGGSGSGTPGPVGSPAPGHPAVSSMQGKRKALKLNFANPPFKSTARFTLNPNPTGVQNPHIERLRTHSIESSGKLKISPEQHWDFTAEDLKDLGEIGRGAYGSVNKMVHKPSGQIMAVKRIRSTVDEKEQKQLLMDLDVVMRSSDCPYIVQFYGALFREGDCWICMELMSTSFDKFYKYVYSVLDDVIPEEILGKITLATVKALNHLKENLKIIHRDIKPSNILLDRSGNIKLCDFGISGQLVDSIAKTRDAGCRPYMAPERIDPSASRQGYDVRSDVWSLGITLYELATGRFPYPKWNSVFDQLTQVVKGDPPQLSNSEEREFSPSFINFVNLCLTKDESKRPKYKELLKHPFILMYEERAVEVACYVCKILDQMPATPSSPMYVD
UniProt P11802, sequence (whole entry, looked up): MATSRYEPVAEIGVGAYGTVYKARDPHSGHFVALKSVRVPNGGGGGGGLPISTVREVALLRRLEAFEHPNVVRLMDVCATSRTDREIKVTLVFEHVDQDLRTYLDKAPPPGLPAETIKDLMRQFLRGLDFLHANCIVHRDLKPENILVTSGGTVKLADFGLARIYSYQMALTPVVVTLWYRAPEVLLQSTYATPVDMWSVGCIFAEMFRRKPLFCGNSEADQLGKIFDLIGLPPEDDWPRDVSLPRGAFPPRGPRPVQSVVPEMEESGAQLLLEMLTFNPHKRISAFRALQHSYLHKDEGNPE

Sample 1
SMILES: Cc1c(C(=O)O)cc(-c2ccc(C3CCNCC3)cc2)c2ccc(-c3ccc(C(F)(F)F)cc3)cc12
Technique: competition with immobilised ligand
Tested at: 1 µM
Quantity: remaining binding
CIT (Homo sapiens, UniProt O14578); binding: 100%
CAMK4 (Homo sapiens, UniProt Q16566); binding: 100%
TLK2 (Homo sapiens, UniProt Q86UE8); cell-free assay: 100%
FGR (Homo sapiens, UniProt P09769); cell-free assay: 100%
PRKCQ (Homo sapiens, UniProt Q04759); cell-free assay: 100%
RIOK3 (Homo sapiens, UniProt O14730); binding: 100%
Insulin receptor (INSR, Homo sapiens, UniProt P06213); cell-free assay: 100%
CDK3 (Homo sapiens, UniProt Q00526); binding: 100%
MAP2K4 (Homo sapiens, UniProt P45985); binding: 100%
TRPM6 (Homo sapiens, UniProt Q9BX84); cell-free assay: 100%
MAP4K2 (Homo sapiens, UniProt Q12851); binding: 100%
IKBKB (Homo sapiens, UniProt O14920); cell-free assay: 100%
MAP3K5 (Homo sapiens, UniProt Q99683); binding: 100%
ULK2 (Homo sapiens, UniProt Q8IYT8); binding: 100%
WEE2 (Homo sapiens, UniProt P0C1S8); binding: 100%
PDGFRA (Homo sapiens, UniProt P16234); cell-free assay: 100%
Cyclin-dependent kinase 4, with cyclin D1 (CDK4, Homo sapiens, UniProt P11802); binding: 100%
LIM domain kinase 2 (LIMK2, Homo sapiens, UniProt P53671); binding: 100%
LCK (Homo sapiens, UniProt P06239); binding: 100%
Tyrosine-protein kinase ABL1, phosphorylated (ABL1, Homo sapiens, UniProt P00519); binding: 82%
AKT3 (Homo sapiens, UniProt Q9Y243); binding: 100%
CHEK1 (Homo sapiens, UniProt O14757); binding: 100%
IKBKE (Homo sapiens, UniProt Q14164); binding: 100%
GRK4 (Homo sapiens, UniProt P32298); binding: 100%
Tyrosine-protein kinase ABL1, phosphorylated (ABL1, Homo sapiens, UniProt P00519, M351T); binding: 100%

Sample 2
Target: Serine/threonine-protein kinase pim-3 (PIM3, Homo sapiens, UniProt Q86V86)
Effect on: enzyme activity
Action: inhibitor
Tested at: 0.5 µM
Reference: control
Quantity: remaining activity
O=C(Nc1ccc(Cl)cc1)c1ccccc1NCc1ccncc1: 93%
CS(=O)(=O)CCNCc1ccc(-c2ccc3ncnc(Nc4ccc(OCc5cccc(F)c5)c(Cl)c4)c3c2)o1: 93.7%
O=C1NC(=O)/C(=C/c2ccc3nccnc3c2)S1: 67.3%
CN(C)CCCn1cc(C2=C(c3c[nH]c4ccccc34)C(=O)NC2=O)c2ccccc21: 1.9%
Cn1cc(/C=C2\C(=O)Nc3ccc(S(N)(=O)=O)cc32)c2ccccc21: 91.6%
COc1ccc(Cl)cc1NC(=O)Nc1cc(C)nc2ccccc12: 97.6%
COc1cc2ncc(-c3ccccc3)nc2cc1OC: 87.4%
CC(C)c1nn(-c2c(Cl)cccc2Cl)c2nc(Cc3ccc(OCCO)cc3)[nH]c(=O)c12: 105%
Cn1cnc2cc3c(Nc4cccc(Br)c4)ncnc3cc21: 104%
CC(=O)O/N=C1/C(c2c(O)[nH]c3cc(Br)ccc23)=Nc2ccccc21: 54.2%
COc1cc2ncnc(Nc3ccc(OCc4ccccc4)cc3)c2cc1OC: 119%
O=c1cc(N2CCOCC2)oc2c1ccc1ccccc12: 95.4%
CCOc1cc2ncnc(Nc3cccc(Br)c3)c2cc1OCC: 105%
Cc1nc(Nc2ncc(C(=O)Nc3c(C)cccc3Cl)s2)cc(N2CCN(CCO)CC2)n1: 96.3%
CCC(=O)Nc1ccc2ncnc(Nc3cccc(Br)c3)c2c1: 76.6%
Nc1[nH]nc2nnc(-c3c(-c4ccccc4)nn4ccccc34)cc12: 100%
C[S+]([O-])c1ccc(-c2nc(-c3ccncc3)c(-c3ccc(F)cc3)[nH]2)cc1 (centres unmarked): 98.1%
CCN1/C(=C/C(C)=O)Sc2ccc(OC)cc21: 47.4%
COc1cc2ncnc(N3CCN(C(=O)Nc4ccc(Oc5ccccc5)cc4)CC3)c2cc1OC: 94.4%
COc1ccc(-c2cnc3c(-c4ccsc4)cnn3c2)cc1: 100%
Cc1ccc(NC(=O)c2ccc(CN3CCN(C)CC3)cc2)cc1Nc1nccc(-c2cccnc2)n1: 95.7%
CC(C)[C@H](CO)Nc1nc(Nc2cccc(Cl)c2)c2ncn(C(C)C)c2n1: 84.9%

Sample 3
Target: Calcium/calmodulin-dependent protein kinase type II subunit alpha (CAMK2A, Homo sapiens, UniProt Q9UQM7)
UniProt Q9UQM7, sequence (whole entry, looked up): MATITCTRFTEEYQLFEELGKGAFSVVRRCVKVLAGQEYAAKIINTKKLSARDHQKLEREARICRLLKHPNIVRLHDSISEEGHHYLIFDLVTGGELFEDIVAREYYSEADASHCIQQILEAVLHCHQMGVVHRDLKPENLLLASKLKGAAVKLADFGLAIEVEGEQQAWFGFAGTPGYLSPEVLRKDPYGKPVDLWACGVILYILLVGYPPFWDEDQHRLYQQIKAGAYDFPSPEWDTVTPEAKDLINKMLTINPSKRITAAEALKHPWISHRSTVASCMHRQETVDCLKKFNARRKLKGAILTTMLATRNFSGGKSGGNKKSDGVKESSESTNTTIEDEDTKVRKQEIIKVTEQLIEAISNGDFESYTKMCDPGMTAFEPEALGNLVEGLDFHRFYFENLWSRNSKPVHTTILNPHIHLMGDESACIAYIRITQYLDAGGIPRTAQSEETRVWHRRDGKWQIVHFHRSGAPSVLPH
Effect on: enzyme activity
Action: inhibitor
Tested at: 10 µM
Quantity: inhibition
O=c1cccccc1: -3%
O=C(O)[C@H]1O[C@@H](Oc2c(O)cc(O)c3c(=O)c(O)c(-c4ccc(O)c(O)c4)oc23)[C@H](O)[C@@H](O)[C@@H]1O: 68%
COC(=O)/C=C/C(=O)O: -9%
CN1[C@@H]2CC[C@H]1C[C@@H](OC(=O)c1c[nH]c3ccccc13)C2: -0.01%
CCC(CC)[C@H](NC(C)=O)[C@@H]1[C@H](O)[C@@H](C(=O)O)C[C@H]1N=C(N)N: -12%
CCN(CC)CCOc1ccc2c(c1)C(=O)c1cc(OCCN(CC)CC)ccc1-2: -3%
CC1(C)CC[C@]2(C(=O)O)CC[C@]3(C)C(=CC[C@@H]4[C@@]5(C)CC[C@H](O[C@@H]6O[C@H](C(=O)O)[C@@H](O)[C@H](O[C@@H]7OC[C@@H](O)[C@H](O)[C@H]7O[C@@H]7O[C@H](CO)[C@@H](O)[C@H](O)[C@H]7O)[C@H]6O)C(C)(C)[C@@H]5CC[C@]43C)[C@@H]2C1: 20%
O=C(NCCN1CCOCC1)c1ccc(Cl)cc1: 5%
CC(C)=C[C@H]1C[C@](C)(O)[C@@H]2[C@H]3CC[C@@H]4[C@@]5(C)CC[C@H](O[C@@H]6O[C@H](CO)[C@@H](O)[C@H](O[C@@H]7O[C@H](CO)[C@@H](O)[C@H](O)[C@H]7O)[C@H]6O[C@@H]6O[C@@H](CO)[C@H](O)[C@H]6O)C(C)(C)[C@@H]5CC[C@@]4(C)[C@@]34CO[C@@]2(C4)O1: 12%
COCc1c(C(C)C)nc(C(C)C)c(/C=C/[C@@H](O)C[C@@H](O)CC(=O)O)c1-c1ccc(F)cc1: -3%
CC[C@H](CC[C@@H](C)[C@H]1CC[C@H]2[C@@H]3CC[C@H]4C[C@@H](O)CC[C@]4(C)[C@H]3CC[C@]12C)C(C)C: 20%
O=CC1OC(=O)c2cc(O)c(O)c(O)c2-c2c(cc(O)c(O)c2O)C(=O)OC1C1OC(=O)c2cc(O)c(O)c(O)c2-c2c(O)c(O)c3oc(=O)c4c(c(O)c(O)c5oc(=O)c2c3c54)-c2c(cc(O)c(O)c2O)C(=O)OCC1O (centres unmarked): -77%

Sample 4
SMILES: Cc1ccc(NC(=O)c2ccnc(C(F)(F)F)c2)cc1-c1cc(OCCO)nc(N2CCOCC2)c1
Tested at: 1 µM
Quantity: remaining binding
PKN2 (Homo sapiens, UniProt Q16513); competitive binding panel; reference: vehicle: 89%
MARK1 (Homo sapiens, UniProt Q9P0L2); competitive binding panel; reference: vehicle: 100%
BMPR2 (Homo sapiens, UniProt Q13873); competitive binding panel; reference: vehicle: 100%
FGFR1 (Homo sapiens, UniProt P11362); competitive binding panel; reference: vehicle: 100%
PRKACB (Homo sapiens, UniProt P22694); competitive binding, scanMAX; PKAC-beta, 1000 nM: 100%
BRSK2 (Homo sapiens, UniProt Q8IWQ3); competitive binding panel; reference: vehicle: 100%
ABL1 (Homo sapiens, UniProt P00519, T315I); competitive binding scan: 77% and 100%
NEK4 (Homo sapiens, UniProt P51957); competitive binding panel; reference: vehicle: 99%
MYLK2 (Homo sapiens, UniProt Q9H1R3); competitive binding panel; reference: vehicle: 98%
SRMS (Homo sapiens, UniProt Q9H3Y6); competitive binding panel; reference: vehicle: 92%
PI4KB (Homo sapiens, UniProt Q9UBF8); competitive binding panel, measured: PIK4CB; reference: vehicle: 100%
CSNK1A1 (Homo sapiens, UniProt P48729); competitive binding panel; reference: vehicle: 98%
